Results collected from several papers.
Each numbered part is a random draw from the data of one study; scales do not carry over between parts.

Set 1
Target: Ras GTPase-activating protein-binding protein 1, RRM domain (G3BP1, Homo sapiens, UniProt Q13283)
UniProt Q13283, sequence (whole entry, looked up): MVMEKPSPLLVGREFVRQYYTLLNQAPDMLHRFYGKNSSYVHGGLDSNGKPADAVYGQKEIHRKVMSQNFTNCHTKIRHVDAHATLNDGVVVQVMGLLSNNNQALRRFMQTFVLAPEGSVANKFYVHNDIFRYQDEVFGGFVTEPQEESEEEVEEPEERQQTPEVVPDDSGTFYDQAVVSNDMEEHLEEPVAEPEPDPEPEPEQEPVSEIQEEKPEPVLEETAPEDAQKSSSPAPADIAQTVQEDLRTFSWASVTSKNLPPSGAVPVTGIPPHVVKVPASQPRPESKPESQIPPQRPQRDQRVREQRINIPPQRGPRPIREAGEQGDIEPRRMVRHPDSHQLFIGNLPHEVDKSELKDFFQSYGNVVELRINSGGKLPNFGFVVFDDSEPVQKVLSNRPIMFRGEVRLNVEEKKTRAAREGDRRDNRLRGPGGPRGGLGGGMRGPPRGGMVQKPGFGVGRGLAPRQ
Technique: RNA Bind-n-Seq
Form: RNA
Matrix: in vitro
Concentration: 1 µM
Notes: whole 134-nt RNA, ends assumed
Together with: 150 mM KCl
Reference: input library
Direction: higher = stronger binding
`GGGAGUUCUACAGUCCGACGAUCUGGGAGGUGGAUUUUGUUUAUUUUUUUAGCUCAUUUCCAGGGGUGGGAUUUUUUUUUUAAUAUGUGUCAUGAAUAAAGUUGUUUUUGAAAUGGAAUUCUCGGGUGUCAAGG` has a log2 enrichment of 1.67.
The log2 enrichment of `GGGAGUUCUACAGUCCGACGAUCUGGCCCUGGUGGCAUGCGGGGAGGAAGAGGUGGCCCCAUGGAUCGUGGUGGUCCCGGUGGAAUGUUCAGAGGUGGCCGUGGUGGAGACAGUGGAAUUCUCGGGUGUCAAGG` is reported as 1.03.
For `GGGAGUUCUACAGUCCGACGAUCGUCCUGUGCUACACAUCGUAUGUACCGAAUCGGGGUUUUUGGGGUUUUUGGUUUUUGGAAAGUAUUAUGUUACGCCGUUCGGAUCUGCACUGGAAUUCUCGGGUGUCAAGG`, the log2 enrichment was -0.247.
`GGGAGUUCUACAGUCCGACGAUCAAGUCCUGUGCUACACAUCGUAUGUACCGAAUCGGGAAAGGGAAAGGGUUUUUGGGAAAGUAUUAUGUUACGCCGUUCGGAUCUGCACUUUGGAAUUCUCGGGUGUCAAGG` has a log2 enrichment of 0.535.
`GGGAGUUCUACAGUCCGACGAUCUAACUUUAGAGGAGGAUCUGAUGGAUAUGGCAGUGGACGUGGAUUUGGGGAUGGCUAUAAUGGGUAUGGAGGAGGACCUGGGGGUGGCAAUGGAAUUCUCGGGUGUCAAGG` has a log2 enrichment of -0.431.
With `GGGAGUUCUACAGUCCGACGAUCCCAGGAAGUAAAAACAAAUGGAAAUGCUUCGGAUAGUGGCAGGGGUGGGGGUUGCUAAGGAAAGGGUGGGAUGGGAGUGGGUAAAGAGUUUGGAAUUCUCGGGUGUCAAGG` the log2 enrichment was 1.1.
`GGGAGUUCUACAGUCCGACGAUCAAGUCCUGUGCUACACAUCGUAUGUACCGAAUCGGGAAAGGGUUUUUGGGUUUGGGAAAGUAUUAUGUUACGCCGUUCGGAUCUGCACUUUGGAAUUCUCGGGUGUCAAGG` has a log2 enrichment of 0.605.
For `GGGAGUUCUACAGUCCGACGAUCUCCUGUGCUACACAUCGUAUGUACCGAAUCGGGUUUUUUUGGGUUUUUUUGGGAAAGGGAAAGUAUUAUGUUACGCCGUUCGGAUCUGCAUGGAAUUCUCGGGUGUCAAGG`, the log2 enrichment was -0.0224.
`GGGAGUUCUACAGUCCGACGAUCAAGUCCUGUGCUACACAUCGUAUGUACCGAAUCGGGAAAAGGGAAAAGGAAAAGGGAAAGUAUUAUGUUACGCCGUUCGGAUCUGCACUUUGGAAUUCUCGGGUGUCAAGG` gave a log2 enrichment of -0.0792.
`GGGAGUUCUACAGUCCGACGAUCGUCCUGUGCUACACAUCGUAUGUACCGAAUCGGAAAAAAAGGAAAAAAAGGAAAAAGGAAAGUAUUAUGUUACGCCGUUCGGAUCUGCACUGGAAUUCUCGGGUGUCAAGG` gave a log2 enrichment of 0.0756.

Set 2
Target: RNA binding protein fox-1 homolog 2, RRM domain, GST-SBP tag (RBFOX2, Homo sapiens, UniProt O43251-10, residues 100-194)
Technique: RNA Bind-n-Seq
Form: RNA
Matrix: in vitro
Concentration: 365 nM
Notes: natural RNA segment, single round, ends assumed
Reference: no-protein control
Direction: higher = stronger binding
Residues (chain): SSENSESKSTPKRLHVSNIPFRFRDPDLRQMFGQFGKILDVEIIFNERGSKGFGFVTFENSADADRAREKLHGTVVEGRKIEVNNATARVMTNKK
For `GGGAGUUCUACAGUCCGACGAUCGUACAUAUCACUACAGUUAUAGGAAGUUUCAGUCUACAGUCCAUCCAAAGGACCAACCUGCCUUACACAUCUCAAGGAAUUCAGCUGUUGAAAUCAUUUGAACUAAUCAAUGGAAUUCUCGGGUGCCAA`, “RBNS enrichment (R)” read 0.324.
For `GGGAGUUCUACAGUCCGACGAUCUGAUCCACCUGCCUCGGCCUCCCAAAGUGGGAAAUGGGUCAUUUUCAAAGGGGCAACAGUGAUACCAUCCCUGCACUCCUGGGUCCUGCUCUUCCAAUGCCCAAGGCAUGUGGAAUUCUCGGGUGCCAA`, “RBNS enrichment (R)” read 0.249.
`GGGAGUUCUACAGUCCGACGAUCAGCAUAGGUCUCUCUCUGCACAGUGUUGGUUCCUCCAGCCUAACCUUUGGCUUUGGGAAGGAAGAGAUGACCGUAAUCUUGCAACAAGAGUGCCCAACCAGGGACCACUGUGGAAUUCUCGGGUGCCAA` — result for “RBNS enrichment (R)”: 0.372.
Under “RBNS enrichment (R)”, `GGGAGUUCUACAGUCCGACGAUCAAAAAACAAACAAAAAAACCAAACCACCUCUACAUAUUAUGGAAAGAAAAUAUUUUUGUCAAUUCUUAUUCUUUUAUAAUUAUGUGGUAUGUAGACUCAUUAAACAAUUCUGGAAUUCUCGGGUGCCAA` is recorded as 0.791.
`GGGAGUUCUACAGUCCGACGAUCCAUUCUCCAUUCUCCAUUUCCCUCUUCAAGGAUGGGCAAUCUACCAAAAUCCCUCAAGAUAACCCUUUGCUAGGAAGUGGUGAAUCUAAAAGCUGAAGCACGUUUCAUAUUGGAAUUCUCGGGUGCCAA`: “RBNS enrichment (R)” 1.46.
For `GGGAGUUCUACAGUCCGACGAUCGAAACACGCAUCAUGGGUCCCUGAUCUAUGAAAUGAACACAACCUCUCUGAGGCUGGAUGAUCUGGAGGAAGGGGGCAUGGAGCAAAUUUGAGGCUCUGAUUGCUGAGCCUGGAAUUCUCGGGUGCCAA`, “RBNS enrichment (R)” read 0.533.
`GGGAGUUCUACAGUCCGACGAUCCGAGGUUUUAAAGGGUGCCAUGGGCUCUCACGUCCUUCGUGUUGCAGUAUUUAUUUUUACUGGGUGAGGAUUUUUCAACUUAACGUUUUAGGACUUAACCAAAUAACCAGUGGAAUUCUCGGGUGCCAA` — result for “RBNS enrichment (R)”: 0.409.
`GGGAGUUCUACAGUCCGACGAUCGGAGAAGUUUACAUGGUGACUGUUCACCUGCAGUACUGUGGACUUUGAACAUUUUGUCCCCUUUCCAGUGAAAAACUAAAAAGUAGUCAUCUGCCAUUACUGUUAUUUGCUGGAAUUCUCGGGUGCCAA` — result for “RBNS enrichment (R)”: 0.232.
`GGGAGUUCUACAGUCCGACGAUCCUCCAACUCCCAUGCUGUGCGUGUCCCUCUGAGAACCAACUGAGGCUAGAACCCUAGGGUCCCUGCUGAGUUCCACAGGGGUGGCCAUCACACACCUGUAUCCCUGGUAUUGGAAUUCUCGGGUGCCAA`: “RBNS enrichment (R)” 0.344.

Set 3
Target: RING finger protein unkempt homolog, zinc fingers 1-6, GST-SBP tag (UNK, Homo sapiens, UniProt Q9C0B0, residues 30-357)
UniProt Q9C0B0, sequence (30-357, looked up): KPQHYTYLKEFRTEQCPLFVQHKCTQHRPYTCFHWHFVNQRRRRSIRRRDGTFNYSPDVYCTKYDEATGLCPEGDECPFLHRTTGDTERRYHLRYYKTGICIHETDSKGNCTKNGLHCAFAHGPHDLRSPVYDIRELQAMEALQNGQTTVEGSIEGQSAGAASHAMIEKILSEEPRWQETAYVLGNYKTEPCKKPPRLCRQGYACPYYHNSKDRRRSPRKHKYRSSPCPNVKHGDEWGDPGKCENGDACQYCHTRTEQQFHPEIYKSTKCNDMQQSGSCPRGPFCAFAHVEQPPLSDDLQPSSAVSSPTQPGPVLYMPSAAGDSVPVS
Technique: RNA Bind-n-Seq
Form: RNA
Matrix: in vitro
Concentration: not given
Notes: RNA with constant flanks, human and mouse sites, ends assumed
Reference: input RNA pool
Direction: higher = stronger binding
`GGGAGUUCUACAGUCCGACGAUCAUCUGGGCUGCAUCUCUUCCAAGUUACCAGAAGGGCUAAUUCUUCCUUGAGAACAUUAUUUAUUCUUCAACAAUAAAUCUUCGGCAAUAGGACUGUAUUUAGCCUGUAUUGUCCCUACCCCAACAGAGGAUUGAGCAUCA` has a bound/input enrichment of 0.273 ratio.
`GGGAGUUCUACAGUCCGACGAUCCAUACACAUUCUUUCCUUGGAGAAGAUCUUGUCCAUCAGGAAGCAUCGAUCAAUCUACCUCAUUUUUAUCUGCGUAAAAGAGUGUGUCUGCACACAAGUCCAUUUCAUUGUGUCCAGCCACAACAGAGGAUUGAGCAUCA` has a bound/input enrichment of 0.179 ratio.
`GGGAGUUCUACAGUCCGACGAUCGCUGCUACAUUCAGUUUUUUAAUAUCCUAUGGUCAUGAUGCAAUCUUGUGAAUGGCCUUGUUAGUUACAAUGUGGUUUGGAUGGGAAGUGUCCCACCUGUAGACUCACGUCUUUGAACAUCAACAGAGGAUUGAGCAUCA` gave a bound/input enrichment of 0.411 ratio.
The bound/input enrichment of `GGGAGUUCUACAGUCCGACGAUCCUUAUCAAUCCAGAUGAACUGAGGGACAUCUGUUGGUCUAUGUAUAACUUUUAAAAUUGGUAUAGUAUCUACAGAGUGUAUAAUUUAAACUAACCACAAAGCUUUACAUCUUCAUUUUGACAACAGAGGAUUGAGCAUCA` is reported as 0.192 ratio.
For `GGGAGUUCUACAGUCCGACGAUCAAGCUUGGAGAAGAACCAGGGGAUGAGGUUGAUGUUCCAAAGGAUGAGCUUAGUAUAGAUUUAGGAAUGUUAUUUAUCGGUGGAACCAAACCUCCCUAGAGAGUACUGUGAAAGCUGGCACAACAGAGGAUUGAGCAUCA`, the bound/input enrichment was 22.2 ratio.
For `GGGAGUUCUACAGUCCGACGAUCUUUGAGCUGAUGACCAGCCUCCACACCAAGCUAGAAGGCUUCCACACUCAAAUCUCUAAGUAUUUCUCUGAGCGUGGUGAUGCAGUGACUAAAGCAGCCAAGCAGCCCCAUGUGGGUGAUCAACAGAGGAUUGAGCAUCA`, the bound/input enrichment was 0.204 ratio.
`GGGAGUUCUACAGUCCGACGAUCGGCAGUUGCAAUUUGAACUUGAGCUCUAAAAAUGGUCUAUUUGUGGUUAUAUUUGCCCAUUUUAAAAGUGAAAUUUCAUUUCUGGAUGCCUUUGAAAACUGACUUUACAUGUGUUUUUGGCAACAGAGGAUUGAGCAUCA` gave a bound/input enrichment of 0.241 ratio.
`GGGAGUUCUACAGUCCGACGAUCUUUCUUAUUUUGAUAUUUUUUUAAUGUUGUGGAUGAAUGCCAGCUUUCAGACAGAGCCCACUUAGCUUGUCCACAUGGAUCUCAAUGCCAAUCCUCCAUUCUUCCUCUCCAGAUAUUUUUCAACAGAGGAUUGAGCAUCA` gave a bound/input enrichment of 4.23 ratio.
For `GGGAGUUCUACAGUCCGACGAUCGAGAAUGUUAUUUAAAGUUGUAUUAUAAUUGCAACCUCCACUAAUUAUUCAGUACUGUAGCAGCAAAGUAUUAUUUGUAAGAAUUUGGUUAUUUUUAUACUUAUAUCCACUCUAAGUCUGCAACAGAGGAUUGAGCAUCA`, the bound/input enrichment was 0.235 ratio.
The bound/input enrichment of `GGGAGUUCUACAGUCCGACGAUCGUAUUUGUCCCAUUUUUGUUUUUAAAUGUAUUUUUAUAAGAUGUAUACAUGUGUAUUUGUAAUAGAUUUUUUGAUUAUAUAAUACUGAAACAUCUCUCAAUAUUAUGAAAAAUGUUAAAACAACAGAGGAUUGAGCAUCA` is reported as 0.878 ratio.
The bound/input enrichment of `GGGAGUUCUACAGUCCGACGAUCUCUGAAUCUGAACAGGCUCUUAAAGGUACUUCUCAGAUUAAAUUACUCUCAUCUGAAGAUAUAGAAGGGAUGCGACUUGUAUGUAGGCUUGCUAGAGAAGUUUUGGAUGUUGCUGCCGGCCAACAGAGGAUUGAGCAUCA` is reported as 1.09 ratio.

Set 4
Target: Protein C-ets-1 (ETS1, Homo sapiens, UniProt P14921, residues 1-441, K379A, full length assumed)
Technique: protein-binding microarray
Form: double-stranded DNA, one strand shown
Matrix: in vitro
Concentration: not given
Notes: k-mer, scored over probes, only values ≥0.25
Direction: higher = stronger binding
Target sequence (chain): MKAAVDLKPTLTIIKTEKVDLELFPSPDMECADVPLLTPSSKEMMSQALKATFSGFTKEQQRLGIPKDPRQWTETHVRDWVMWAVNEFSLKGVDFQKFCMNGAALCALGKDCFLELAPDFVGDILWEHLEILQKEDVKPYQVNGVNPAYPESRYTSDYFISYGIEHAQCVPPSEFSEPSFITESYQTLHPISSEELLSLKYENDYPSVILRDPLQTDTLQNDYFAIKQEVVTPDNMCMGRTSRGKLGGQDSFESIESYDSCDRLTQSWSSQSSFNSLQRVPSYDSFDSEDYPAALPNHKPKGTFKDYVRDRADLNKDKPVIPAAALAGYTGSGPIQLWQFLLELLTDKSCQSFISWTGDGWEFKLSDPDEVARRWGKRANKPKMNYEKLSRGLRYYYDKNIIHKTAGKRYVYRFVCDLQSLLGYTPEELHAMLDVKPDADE
`CAACGTCG` gave an E-score of 0.291.
`GCCGGTCA` has an E-score of 0.28.
`CCCCGGAA` has an E-score of 0.391.
`GACGGTAA` has an E-score of 0.275.
`ACTTCCTG` gave an E-score of 0.326.
With `CCGACGGA` the E-score was 0.337.
`ATACAGAT` has an E-score of 0.259.
For `ACCGGCCG`, the E-score was 0.325.
`AATCCCCG` has an E-score of 0.319.
With `GGTATACA` the E-score was 0.272.
With `AGCGGTTA` the E-score was 0.254.
With `CGGTATAA` the E-score was 0.341.
With `CGATATCC` the E-score was 0.277.
`AACCGGTA` has an E-score of 0.459.
The E-score of `AAACGACG` is reported as 0.303.
The E-score of `GCAATAAC` is reported as 0.251.
With `AAGTATGT` the E-score was 0.288.
For `GCGTTGTA`, the E-score was 0.29.
`CACCGGCA` has an E-score of 0.377.
With `CGGTCTGA` the E-score was 0.276.
The E-score of `AGTATACG` is reported as 0.263.
With `AATTACGT` the E-score was 0.258.
`AGACCGGG` gave an E-score of 0.423.
For `CGGAACCG`, the E-score was 0.348.

A few entries again (set 4):
`CAACGTCG` gave an E-score of 0.291.
`GCCGGTCA` has an E-score of 0.28.
`CCCCGGAA` has an E-score of 0.391.
`GACGGTAA` has an E-score of 0.275.
`ACTTCCTG` gave an E-score of 0.326.
With `CCGACGGA` the E-score was 0.337.
